Measured values gathered from unrelated publications.
Protocols differ between the studies behind these lines. ± gives the spread as reported.
Organism: Plasmodium falciparum

SMILES	assay	system	conditions	how to read	endpoint	value
CC[C@H](C)[C@@H](C(=O)O[C@@H](CC(C)C)C(=O)N[C@@H](CC(C)C)C(=O)N[C@@H](C)/C=C/C(=O)N1C(=O)C=C(OC)[C@@H]1C)N(C)C	schizont egress block		24 h		minimal effective concentration	≥ 10 µM
O[Si](CCCN1CCCCC1)(c1ccccc1)C1CCCCC1 (centres unmarked)	parasite proliferation, SYBR Green	3D7	72 h		IC50	0.076 µM
COc1cccc(C(N)=O)c1O		K1, multidrug-resistant	up to 10 µg/mL		antiplasmodial activity	inactive
Cc1cccc(C)c1CC1CN(C(=O)[C@@H](N)Cc2ccc(O)cc2)C1	male gamete formation, exflagellation	NF54 stage V gametocytes	1 µM, 48 h		inhibition	18 ± 8.2%
Nc1cccc2c(=O)[nH]c(=O)oc12		K1, multidrug-resistant	up to 10 µg/mL		antiplasmodial activity	inactive
COc1ccc(C[C@H]2NC[C@H](O)[C@H]2OC(C)=O)cc1	parasite growth, SYBR Green				IC50	0.0194 µM
CCCCCCC(C)CC1=C(O)C(=O)c2c(C)cccc2C1=O (centres unmarked)	parasite growth, [3H]hypoxanthine incorporation	D6 chloroquine-sensitive, human erythrocytes			IC50	0.073 µM
Clc1ccc2nc(-c3ccccc3)cc(NCCCCN3CCOCC3)c2c1	parasite growth, SYBR Green	DD2	72 h, drug-resistant strain, blood stage		EC50	> 0.4 µM
COc1ccc(-c2c(C)nn3c(N)c(C#N)cnc23)cc1OC	parasite growth	Dd2-Polδ resistant lines, PI4KIIIβ E1316D	72 h	relative to: EC50 resistant over parental	fold resistance	~16 fold
CO\C=C(C(=O)OC)/C(C)=C\C=C\c1ccc(Cl)c(OC)c1	parasite proliferation, SYBR Green	3D7	72 h		IC50	0.23 µM
CC(CCCCCC(F)(F)F)CC1=C(O)C(=O)c2ccccc2C1=O (centres unmarked)	parasite growth, [3H]hypoxanthine incorporation	TM91C235 multidrug-resistant, human erythrocytes			IC50	0.084 µM
CN(C)c1ccc(C(=C2C=CC(=[N+](C)C)C=C2)c2ccc(N(C)C)cc2)cc1	parasite proliferation, SYBR Green	3D7	72 h		IC50	0.319 µM
CC(C)c1ccc2c(c1)CC[C@H]1[C@](C)(CN)CCC[C@]21C	Giemsa microscopy	3D7	10 µM, 48 h		parasites at trophozoite or schizont stage	2.4%
CC(C)n1nc(-c2ccc3oc(N)nc3c2)c2c(N)ncnc21	membrane feeding Anopheles gambiae	NF54 stage V gametocytes	2 µM, 48 h		reduction of infected mosquitoes	44%
COc1ccc(C[C@H](N)C(=O)N[C@H]2[C@@H](O)[C@H](n3cnc4c(N(C)C)ncnc43)O[C@@H]2CO)cc1	parasite proliferation, SYBR Green	3D7	72 h		IC50	0.088 µM
O=C1C(O)=C([C@H]2CC[C@H](c3ccc(Cl)cc3)CC2)C(=O)c2ccccc21	item: dihydroorotate, N-carbamoyl-L-aspartate	3D7 trophozoites	10-fold IC50, 2.5 h	relative to: untreated	metabolite level	increased
Cc1[nH]c2ccccc2c(=O)c1-c1ccc(Oc2ccccc2)cc1	parasite growth, SYBR Green	D6	72 h, blood stage		EC50	0.01 µM

A few entries again:
SMILES	assay	system	conditions	how to read	endpoint	value
COc1ccc(C[C@H]2NC[C@H](O)[C@H]2OC(C)=O)cc1	parasite growth, SYBR Green				IC50	0.0194 µM
CCCCCCC(C)CC1=C(O)C(=O)c2c(C)cccc2C1=O (centres unmarked)	parasite growth, [3H]hypoxanthine incorporation	D6 chloroquine-sensitive, human erythrocytes			IC50	0.073 µM
Clc1ccc2nc(-c3ccccc3)cc(NCCCCN3CCOCC3)c2c1	parasite growth, SYBR Green	DD2	72 h, drug-resistant strain, blood stage		EC50	> 0.4 µM
